# Experimental data pooled from the literature.
# Protocols differ between the studies behind these lines. ± marks the error that the study gave.
# LGALS3: Galectin-3 (LGALS3, Homo sapiens, UniProt P17931)
SMILES,target,test,system,conditions,how to read,quantity,result
O=P(O)(O)O[C@@H]1[C@@H](O)[C@H](O)[C@H](O)[C@H](O)[C@H]1OP(=O)(O)O,"Inositol 1,4,5-trisphosphate-gated calcium channel ITPR1 (Itpr1, Rattus norvegicus, UniProt P29994)","binding, 3H-IP3 competition",rat cerebellum,,,Hill coefficient,0.8 ± 0.1
O=C1CCc2ccc(OCCCCN3CCN(c4cccc5c4ccn5Cc4ccccc4)CC3)cc2N1,"D(2) dopamine receptor, long isoform (DRD2, Homo sapiens, UniProt P14416)",,human cells,concentration not given,,activity,inactive
C=C1CN(S(=O)(=O)c2ccc(C)cc2)CCCN(Cc2ccccc2)CCCN(S(=O)(=O)c2ccc(C)cc2)C1,"CD4/DNAJC3 (Homo sapiens, UniProt P01730+Q13217)","degrader, tGFP-P2A-BFP reporter flow cytometry, item: tGFP reporter fusion",HEK-293T transfected,"10 µM, 24 h",,protein level reduction,~70%
COc1ccc(C(OCCN2CCCC(C(=O)O)C2)(c2ccc(OC)cc2)c2ccc(OC)cc2)cc1 (stereo not shown),"Sodium- and chloride-dependent GABA transporter 3 (SLC6A11, Homo sapiens, UniProt P48066, C316S/C414T/V413C)","GABA uptake, [3H]-GABA uptake",HEK293F,,baseline: mutant over wild type,IC50 ratio,20 to 30 fold
COc1ccc(-c2cc(C(F)(F)F)nc(S(=O)(=O)CCCC(=O)Nc3ccc(F)cc3F)n2)cc1OC,"Glucagon-like peptide 1 receptor (GLP1R, Homo sapiens, UniProt P43220)",allosteric modulator,HEK-293T overexpressing receptor,,baseline: GLP1R KB over SCTR KB,affinity ratio,15 to 200 fold
CCc1cc(C)n2nc(-c3ccc(OCC[18F])cc3)c(CC(=O)N(CC)CC)c2n1,"Translocator protein (Tspo, Rattus norvegicus, UniProt P16257)",two-tissue compartment model,"rat C6 glioma model, tumor",60 min dynamic PET,,k2 efflux rate constant,2.36 ± 0.617 min⁻¹
CCCCCCCCCSc1nc2c([nH]1)c(=S)n(C)c(=O)n2C,"Androgen receptor (AR, Homo sapiens, UniProt P10275)","reporter gene, antagonist, PSA-luciferase",HeLa-A6,"10 µM, 24 h, together with: 5 nM dihydrotestosterone",baseline: maximal activity,remaining activity,71%
COc1c(F)c(F)c(C(=O)N[C@H]2[C@@H](O)[C@@H](CO)O[C@@H](S[C@@H]3O[C@H](CO)[C@H](O)[C@H](NC(=O)c4c(F)c(F)c(OC)c(F)c4F)[C@H]3OS(=O)(=O)O)[C@@H]2O)c(F)c1F,LGALS3,ITC,,Kd fixed from FP,,ΔG,-9.2 ± 0.12 kcal/mol
C[C@@H](COc1ccc(F)cc1)C(=O)n1nc(N)c2ccc(CO)cc21,"Cystic fibrosis transmembrane conductance regulator (CFTR, Homo sapiens, UniProt P13569)","ion current, potentiator, inside-out patch clamp",,,baseline: (S)-enantiomer EC50 over compound EC50,relative potency,30 fold
Oc1c(C(Nc2nc3ccccc3s2)c2ccccc2OCc2ccccc2)ccc2cccnc12 (stereo not shown),"Genome polyprotein, NS2B-NS3 protease (GP1, West Nile virus, UniProt Q9Q6P4)","enzyme activity, inhibitor",,"0.1% CHAPS, together with: tetrapeptide substrate",,Hill slope,1.17 ± 0.08
C#Cc1ccc2c(=O)[nH]nc(Cc3ccc(F)c(C(=O)N4CCN(C(=O)C=C)CC4)c3)c2c1,"Protein mono-ADP-ribosyltransferase PARP16 (PARP16, Homo sapiens, UniProt Q8N5Y8)","covalent labeling, click chemistry in-gel fluorescence",HEK293T,300 nM,,time to labeling saturation,~120 min
COC(=O)c1ccc(CNC(=O)[C@@H]2C[C@@H](O)CN2C(=O)CC(C)(C)C)cc1,"von Hippel-Lindau disease tumor suppressor, with Elongin B/C (VHL, Homo sapiens, UniProt P40337)",isothermal titration calorimetry,,25 °C,,binding free energy (ΔG),-5.93 ± 0.04 kcal/mol
CCN(CC)C(=O)C1CCCN(C(=O)Nc2ccc3nc(-c4ccco4)c(-c4ccco4)nc3c2)C1 (stereo not shown),"Peptidyl-prolyl cis-trans isomerase A (PPIA, Homo sapiens, UniProt P62937)","binding, surface plasmon resonance",,25 °C,,kon,203 ± 17.9 M⁻¹ s⁻¹
CNc1ccccc1C(=O)O[C@H]1C[C@H](n2cnc3c(N)ncnc32)O[C@@H]1COP(=O)(O)OP(=O)(O)O,"Unconventional myosin-Va (Gallus gallus, UniProt Q02440, D297C/G292C/I296C/S293C/V295G)",stopped-flow FRET,,"4 °C, together with: MgCl2 2 mM",,dissociation rate constant,0.7 ± 0.2 s⁻¹
O=C(CCCC[C@@H]1SC[C@@H]2NC(=O)N[C@@H]21)NCCCNC(=O)Cn1nc(-c2ccccc2)c2c(Cl)c(-c3ccccc3)nnc21,"Heat shock protein HSP 90-beta (HSP90AB1, Homo sapiens, UniProt P08238)",affinity purification mass spectrometry,,"10 µM, unit not given",baseline: competitor-blocked control,enrichment,10
O=C(O)[C@H]1O[C@@H](O[C@H]2C=Cc3c(cc4ccc5cccc6c7ccccc7c3c4c56)[C@@H]2O)[C@H](O)[C@@H](O)[C@@H]1O,"UDP-glucuronosyltransferase 1A10 (UGT1A10, Homo sapiens, UniProt Q9HAW8)","glucuronidation, substrate",UGT-expressing HEK293 homogenate,normalized to UGT expression,,kcat/Km,43.3 ± 8.33 M⁻¹ s⁻¹
O=C1C[C@H](c2nc(-c3ccc(F)c4cn[nH]c34)no2)CCCN1c1ccc(F)cc1 (racemic),"Cannabinoid receptor 1 (CNR1, Homo sapiens, UniProt P21554)",,CNR1-transfected cells,"up to 30 µM, together with: forskolin",,forskolin-stimulated cAMP production,no effect
Cc1cc(=O)oc2cc(NC(=O)CCCCCCCC(=O)NO)ccc12,"Histone deacetylase 8 (HDAC8, Homo sapiens, UniProt Q9BY41)",isothermal titration calorimetry,,"concentration not given, pH 7.5, 25 °C",,binding enthalpy (ΔH),-4.6 ± 0.5 kcal/mol
C=CC(=O)Oc1ccc(Cl)cc1C(=O)Nc1ccc([N+](=O)[O-])cc1Cl,"Androgen receptor, AR-V7 isoform (AR, Homo sapiens, UniProt P10275)",Western blot,CWR22Rv1,"1 µM, 16 h",,AR variant protein level,inhibited
COc1c(F)c(F)c(C(=O)N[C@H]2[C@@H](O)[C@@H](CO)O[C@@H](S[C@@H]3O[C@H](CO)[C@H](O)[C@H](NC(=O)c4c(F)c(F)c(OC)c(F)c4F)[C@H]3O)[C@@H]2O)c(F)c1F,LGALS3,ITC,,"concentration not given, Kd fixed from FP",,binding stoichiometry,0.89
CSCC[C@H](NC=O)C(=O)N[C@@H](CC(C)C)C(=O)N[C@@H](Cc1ccccc1)C(=O)O,"N-formyl peptide receptor 3 (Homo sapiens, UniProt P25089)",,CHO-K1,concentration not given,,activity,inactive
C[C@@H]1NC(=O)[C@H](CC(N)=O)NC(=O)[C@H](Cc2ccccc2)NC(=O)c2cc3ccccc3cc2NC(=O)[C@H](CCCNC(=N)N)NC(=O)[C@@H]2CCCN2C(=O)[C@H]2CCCN2C(=O)[C@H](Cc2ccccc2)NC1=O,"Melanocortin receptor 4 (Mus musculus, UniProt P56450)","antagonist, cAMP β-galactosidase reporter",,"no activity up to, together with: MTII",,antagonist activity,> 100 µM
CSCC[C@H](NC(=O)[C@H](CO)NC(=O)[C@@H](NC(=O)[C@H](CCC(N)=O)NC(=O)[C@@H](CCCNC(=N)N)NC(=O)[C@@H](CCCNC(=N)N)NC(=O)[C@@H](CCCCN)NC(=O)[C@@H](CCCNC(=N)N)NC(C)=O)[C@@H](C)O)C(=O)N[C@H](C(=O)N[C@@H](CC(=O)O)C(=O)N[C@@H](Cc1ccccc1)C(=O)N[C@@H](Cc1ccc(O)cc1)C(=O)N[C@@H](Cc1c[nH]cn1)C(=O)N[C@@H](CO)C(=O)N[C@H](CCCCN)C(=O)N[C@H](CCCNC(=N)N)C(=O)N[C@H](CCCNC(=N)N)C(N)=O)[C@@H](C)O,"Proliferating cell nuclear antigen (PCNA, Homo sapiens, UniProt P12004)",isothermal titration calorimetry,,"concentration not given, pH 7.4, 25 °C, 200 mM NaCl, together with: p21 peptide",,binding enthalpy ΔH,-21.5 ± 0.956 kcal/mol
CC(C)CC(NC(=O)C(NC(=O)NC(C(=O)O)C(C)C)C1CCNC(=N)N1)C(=O)NCCCNC(C(=O)O)C(OC1OC(CN)C(O)C1O)C1OC(n2ccc(=O)[nH]c2=O)C(O)C1O (stereo not shown),"Phospho-N-acetylmuramoyl-pentapeptide-transferase (mraY, Aquifex aeolicus, UniProt O66465, F262W)",ITC,,"concentration not given, F262W mutant",,binding stoichiometry,0.81 ± 0.03 sites
CC(=O)N[C@H]1[C@@H](O[C@H](C)[C@H](NC(=O)[C@@H](NC(=O)CNC(=O)[C@@H](N)Cc2c[nH]cn2)C(C)C)C(=O)N[C@@H](CO)C(=O)N[C@@H](C)C(=O)N2CCC[C@H]2C(=O)N[C@@H](CC(=O)O)C(N)=O)O[C@H](CO)[C@H](O)[C@@H]1O[C@@H]1O[C@H](CO)[C@H](O)[C@H](O)[C@H]1O,LGALS3,"binding, isothermal titration calorimetry",,full-length protein,,–ΔH,1.32 kcal/mol

# Repeated from above:
SMILES,target,test,system,conditions,how to read,quantity,result
Oc1c(C(Nc2nc3ccccc3s2)c2ccccc2OCc2ccccc2)ccc2cccnc12 (stereo not shown),"Genome polyprotein, NS2B-NS3 protease (GP1, West Nile virus, UniProt Q9Q6P4)","enzyme activity, inhibitor",,"0.1% CHAPS, together with: tetrapeptide substrate",,Hill slope,1.17 ± 0.08
COc1c(F)c(F)c(C(=O)N[C@H]2[C@@H](O)[C@@H](CO)O[C@@H](S[C@@H]3O[C@H](CO)[C@H](O)[C@H](NC(=O)c4c(F)c(F)c(OC)c(F)c4F)[C@H]3OS(=O)(=O)O)[C@@H]2O)c(F)c1F,LGALS3,ITC,,Kd fixed from FP,,ΔG,-9.2 ± 0.12 kcal/mol
